Measured values from different studies.
Compare with care: the assays were run in different laboratories. “And” joins repeats or separate records; there may be more than shown. Numbers after ± are the reported error.
Beta-lactamase CTX-M-27: Beta-lactamase CTX-M-27 (Escherichia coli, UniProt Q840M4)
Sequence of UniProt P02699 (whole entry, looked up): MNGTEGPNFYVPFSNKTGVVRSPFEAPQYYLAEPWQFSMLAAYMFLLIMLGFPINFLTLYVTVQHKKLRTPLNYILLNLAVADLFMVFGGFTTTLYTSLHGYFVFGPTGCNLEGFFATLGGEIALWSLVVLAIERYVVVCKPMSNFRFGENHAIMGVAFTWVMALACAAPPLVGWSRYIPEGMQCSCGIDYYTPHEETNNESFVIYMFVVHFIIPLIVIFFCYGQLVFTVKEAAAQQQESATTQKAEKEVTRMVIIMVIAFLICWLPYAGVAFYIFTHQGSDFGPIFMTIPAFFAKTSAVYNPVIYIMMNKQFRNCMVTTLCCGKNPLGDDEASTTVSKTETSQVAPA
Sequence of UniProt P69905 (whole entry, looked up): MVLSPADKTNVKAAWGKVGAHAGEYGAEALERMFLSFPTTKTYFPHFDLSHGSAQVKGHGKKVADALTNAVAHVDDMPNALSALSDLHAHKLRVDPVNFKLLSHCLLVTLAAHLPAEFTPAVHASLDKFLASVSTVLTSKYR
Sequence of UniProt Q07741 (whole entry, looked up): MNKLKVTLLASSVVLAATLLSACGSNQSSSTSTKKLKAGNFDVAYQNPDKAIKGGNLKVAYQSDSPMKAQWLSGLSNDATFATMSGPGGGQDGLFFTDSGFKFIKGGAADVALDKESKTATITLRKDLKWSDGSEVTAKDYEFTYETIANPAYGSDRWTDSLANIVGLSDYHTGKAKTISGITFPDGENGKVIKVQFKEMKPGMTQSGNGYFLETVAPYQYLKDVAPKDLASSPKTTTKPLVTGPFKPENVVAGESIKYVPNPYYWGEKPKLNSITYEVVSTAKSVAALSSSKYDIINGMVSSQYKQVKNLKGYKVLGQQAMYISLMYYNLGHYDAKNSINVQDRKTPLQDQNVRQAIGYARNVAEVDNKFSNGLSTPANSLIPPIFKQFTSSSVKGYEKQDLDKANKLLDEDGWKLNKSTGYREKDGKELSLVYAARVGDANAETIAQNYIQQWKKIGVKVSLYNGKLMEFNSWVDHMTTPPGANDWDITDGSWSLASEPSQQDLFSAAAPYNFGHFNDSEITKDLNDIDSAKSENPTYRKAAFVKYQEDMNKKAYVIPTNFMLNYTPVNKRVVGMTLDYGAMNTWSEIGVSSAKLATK
Sequence of UniProt Q06911 (whole entry, looked up): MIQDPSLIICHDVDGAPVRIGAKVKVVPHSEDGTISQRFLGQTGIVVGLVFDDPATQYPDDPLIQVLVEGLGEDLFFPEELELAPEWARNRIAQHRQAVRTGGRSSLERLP
Sequence of UniProt Q42371 (whole entry, unmodified, looked up): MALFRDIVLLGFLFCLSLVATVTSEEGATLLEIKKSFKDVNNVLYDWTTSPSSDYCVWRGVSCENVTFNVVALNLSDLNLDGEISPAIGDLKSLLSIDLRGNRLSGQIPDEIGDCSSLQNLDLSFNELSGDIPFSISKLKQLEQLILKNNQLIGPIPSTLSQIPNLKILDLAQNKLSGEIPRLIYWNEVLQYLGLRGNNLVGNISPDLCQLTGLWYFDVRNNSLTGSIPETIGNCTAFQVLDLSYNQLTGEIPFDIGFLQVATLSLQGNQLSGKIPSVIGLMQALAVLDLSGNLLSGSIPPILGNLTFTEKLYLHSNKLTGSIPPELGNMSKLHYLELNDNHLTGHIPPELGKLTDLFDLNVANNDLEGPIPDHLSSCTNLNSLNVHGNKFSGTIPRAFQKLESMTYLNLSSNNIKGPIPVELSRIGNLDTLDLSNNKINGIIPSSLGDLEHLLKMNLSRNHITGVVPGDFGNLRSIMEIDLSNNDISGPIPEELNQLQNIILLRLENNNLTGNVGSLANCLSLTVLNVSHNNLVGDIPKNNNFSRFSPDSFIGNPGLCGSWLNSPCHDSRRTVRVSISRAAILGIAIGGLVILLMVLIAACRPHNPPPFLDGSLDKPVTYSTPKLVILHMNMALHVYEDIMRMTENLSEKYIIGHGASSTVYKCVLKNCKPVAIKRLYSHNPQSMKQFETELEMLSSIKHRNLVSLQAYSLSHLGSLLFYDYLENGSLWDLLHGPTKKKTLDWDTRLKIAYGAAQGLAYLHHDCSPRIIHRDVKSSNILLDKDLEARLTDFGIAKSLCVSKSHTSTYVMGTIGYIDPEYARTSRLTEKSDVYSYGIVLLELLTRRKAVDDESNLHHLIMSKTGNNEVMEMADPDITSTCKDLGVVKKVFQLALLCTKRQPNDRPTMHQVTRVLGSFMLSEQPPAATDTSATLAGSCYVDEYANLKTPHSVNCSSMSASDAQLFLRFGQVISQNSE
Sequence of UniProt Q96P16 (whole entry, looked up): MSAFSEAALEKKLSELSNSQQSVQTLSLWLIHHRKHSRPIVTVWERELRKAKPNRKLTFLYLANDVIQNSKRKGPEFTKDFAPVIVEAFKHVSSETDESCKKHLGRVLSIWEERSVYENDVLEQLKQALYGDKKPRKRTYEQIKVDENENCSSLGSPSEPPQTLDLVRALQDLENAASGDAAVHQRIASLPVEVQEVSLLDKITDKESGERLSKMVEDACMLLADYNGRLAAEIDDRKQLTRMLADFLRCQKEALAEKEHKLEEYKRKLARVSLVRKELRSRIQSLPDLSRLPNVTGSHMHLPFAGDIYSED
Sequence of UniProt O15392 (whole entry, looked up): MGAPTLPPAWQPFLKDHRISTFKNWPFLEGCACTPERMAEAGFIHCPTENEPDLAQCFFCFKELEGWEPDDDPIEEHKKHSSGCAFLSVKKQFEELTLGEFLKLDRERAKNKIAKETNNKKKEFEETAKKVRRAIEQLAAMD
Sequence of UniProt Q13526 (whole entry, looked up): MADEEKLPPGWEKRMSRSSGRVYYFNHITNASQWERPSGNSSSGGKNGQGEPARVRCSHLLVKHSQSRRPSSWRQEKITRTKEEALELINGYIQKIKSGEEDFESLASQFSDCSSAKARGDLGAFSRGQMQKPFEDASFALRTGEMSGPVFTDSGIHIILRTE
Sequence of UniProt P02458 (whole entry, looked up): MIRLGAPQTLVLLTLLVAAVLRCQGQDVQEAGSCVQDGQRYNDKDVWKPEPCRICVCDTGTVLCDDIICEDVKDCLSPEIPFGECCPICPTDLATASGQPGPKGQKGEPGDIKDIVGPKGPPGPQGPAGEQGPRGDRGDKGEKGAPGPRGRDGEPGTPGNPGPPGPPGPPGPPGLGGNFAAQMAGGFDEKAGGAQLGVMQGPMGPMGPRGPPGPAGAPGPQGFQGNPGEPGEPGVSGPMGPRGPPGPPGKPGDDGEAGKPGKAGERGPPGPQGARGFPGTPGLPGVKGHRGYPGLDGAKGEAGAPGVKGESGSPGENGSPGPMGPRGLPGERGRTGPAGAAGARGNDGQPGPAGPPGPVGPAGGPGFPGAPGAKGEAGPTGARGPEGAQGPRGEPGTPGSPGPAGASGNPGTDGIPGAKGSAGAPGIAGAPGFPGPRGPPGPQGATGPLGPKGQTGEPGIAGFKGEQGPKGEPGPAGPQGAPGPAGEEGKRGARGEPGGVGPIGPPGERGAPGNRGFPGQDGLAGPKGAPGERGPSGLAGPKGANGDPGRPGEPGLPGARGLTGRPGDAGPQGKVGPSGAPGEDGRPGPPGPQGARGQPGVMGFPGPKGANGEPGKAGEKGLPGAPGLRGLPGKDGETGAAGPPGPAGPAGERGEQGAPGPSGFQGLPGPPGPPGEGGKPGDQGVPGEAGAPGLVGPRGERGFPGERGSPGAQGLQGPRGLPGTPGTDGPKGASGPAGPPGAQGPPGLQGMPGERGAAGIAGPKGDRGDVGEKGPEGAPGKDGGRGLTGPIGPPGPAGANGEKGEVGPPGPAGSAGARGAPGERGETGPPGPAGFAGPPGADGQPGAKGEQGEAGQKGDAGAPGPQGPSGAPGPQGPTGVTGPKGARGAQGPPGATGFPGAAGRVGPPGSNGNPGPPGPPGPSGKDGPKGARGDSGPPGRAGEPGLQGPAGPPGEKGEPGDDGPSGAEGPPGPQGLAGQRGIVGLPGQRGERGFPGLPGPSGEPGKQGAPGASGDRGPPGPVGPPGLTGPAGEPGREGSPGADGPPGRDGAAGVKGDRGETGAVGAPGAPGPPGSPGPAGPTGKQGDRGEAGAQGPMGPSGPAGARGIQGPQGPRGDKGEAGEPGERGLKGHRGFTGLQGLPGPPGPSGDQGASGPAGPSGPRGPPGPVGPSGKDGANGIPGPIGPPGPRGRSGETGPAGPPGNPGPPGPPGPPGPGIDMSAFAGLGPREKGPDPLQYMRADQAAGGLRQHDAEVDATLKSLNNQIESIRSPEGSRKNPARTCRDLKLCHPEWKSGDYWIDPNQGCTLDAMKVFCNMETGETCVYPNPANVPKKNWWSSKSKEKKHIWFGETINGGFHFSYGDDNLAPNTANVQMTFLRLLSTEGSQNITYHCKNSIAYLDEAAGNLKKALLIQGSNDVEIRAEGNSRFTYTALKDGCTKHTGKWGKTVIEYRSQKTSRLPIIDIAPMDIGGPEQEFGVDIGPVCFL

| Structure (SMILES) | target or system | assay | system | setting | quantity | result |
| --- | --- | --- | --- | --- | --- | --- |
| O=C(Nc1cccc(-c2nn[nH]n2)c1)c1cc(-c2cc[nH]c2)cc(C(F)(F)F)c1 | Beta-lactamase CTX-M-27 | surface plasmon resonance | – | 25 °C | Kd | 2.28 ± 0.06 µM |
| CN[C@](C)(C[18F])C(=O)O | A549 tumour model | – | host not given, blood | 15 min, tumour-bearing | tracer uptake | 2.6 %ID/g |
| O=C(Nc1cccc(-c2nn[nH]n2)c1)c1cc(-c2ccncn2)cc(C(F)(F)F)c1 | Beta-lactamase CTX-M-27 | surface plasmon resonance | – | 25 °C | Kd | 2.91 ± 0.05 µM |
| CC(=O)N(CC(=O)N(C)[C@@H](C)C(=O)N(Cc1c[nH]c2cc(Cl)ccc12)[C@@H](C)C(=O)N(C)[C@@H](C)C(=O)N(CCC(C)(C)C)[C@@H](C)C(=O)N1CCNCC1)Cc1ccccc1 | E3 ubiquitin-protein ligase Mdm2 (MDM2, Homo sapiens, UniProt Q00987) | binding, ITC | – | – | Kd | 0.318 µM |
| CSCC[C@H](NC(=O)[C@H](CC(=O)O)NC(=O)[C@H](CC(C)C)NC(=O)[C@@H](N)CCC(N)=O)C(=O)N[C@@H](Cc1ccccc1)C(=O)N[C@@H](CCCCN)C(=O)N[C@@H](CCC(=O)O)C(N)=O | Baculoviral IAP repeat-containing protein 5 (BIRC5, Homo sapiens, UniProt O15392) | binding | – | – | Kd | > 0.3 µM |
| Cc1ncc(C[n+]2csc(CCO)c2C)c(=O)[nH]1 | nicotinamide riboside transporter PnuT (Shewanella woodyi, UniProt B1KPL9) | isothermal titration calorimetry | DDM | pH 8.0, 25 °C | Kd | 129 µM and 130 µM |
| C[C@H](NC(=O)[C@@H](N)Cc1ccc(O)cc1)C(=O)NCC(=O)N[C@@H](CO)C(=O)N[C@H](C(=O)N[C@@H](CC(=O)O)C(=O)N[C@@H](CCC(=O)O)C(=O)N[C@@H](CC(N)=O)C(=O)N[C@H](C(=O)N[C@@H](CC(=O)O)C(=O)N[C@@H](CO)C(=O)N[C@@H](CCC(=O)O)C(=O)O)[C@@H](C)O)[C@@H](C)OP(=O)(O)O | Bifunctional polynucleotide phosphatase/kinase, FHA domain (Homo sapiens, UniProt Q96T60) | binding, ITC | – | pH 7.5, 10 °C, PNK FHA domain | Kd | 10.6 µM |
| CC(C)C[C@H](NC(=O)CNC(=O)[C@@H](NC(=O)[C@H](CO)NC(=O)[C@H](CCCCN)NC(=O)[C@H](CC(C)C)NC(=O)C1(NC(=O)[C@H](CCC(=O)O)NC(=O)[C@H](CC(C)C)NC(=O)[C@@H](N)C(C)C)CC(C)(C)N([O])C(C)(C)C1)C(C)C)C(=O)N[C@@H](Cc1ccccc1)C(=O)O | Rhodopsin, photoactivated (Meta II) (RHO, Bos taurus, UniProt P02699) | EPR | rod outer segment membranes | pH 6.8, 296 K, rhodopsin 90 µM | Kd | 12.5 µM |
| CC[C@H](C)[C@H](N)C(=O)NCC(=O)N[C@@H](CO)C(=O)N[C@H](C(=O)N[C@@H](C)C(=O)N1CCC[C@H]1C(=O)N[C@H](C(=O)N[C@H]1CSSC[C@@H]2NC(=O)[C@H](CCCNC(=N)N)NC(=O)[C@H](Cc3ccc(O)cc3)NC(=O)[C@H](Cc3c[nH]cn3)NC(=O)[C@H](Cc3ccc(O)cc3)NC(=O)[C@H](C)NC(=O)[C@H](CO)NC(=O)[C@H](CC(N)=O)NC(=O)[C@H]([C@@H](C)CC)NC(=O)[C@@H]3CCCN3C(=O)[C@H](CC(=O)O)NC(=O)[C@H](CC(N)=O)NC(=O)CNC(=O)[C@H](CCC(=O)O)NC(=O)[C@H](C(C)C)NC(=O)[C@@H]3CCCN3C(=O)[C@H](C(C)C)NC(=O)[C@H](CCC(N)=O)NC(=O)[C@H](CCC(=O)O)NC(=O)[C@H](C)NC(=O)[C@H](CCCNC(=N)N)NC(=O)[C@@H]3CSSC[C@H](NC(=O)[C@H](CCC(=O)O)NC(=O)[C@H](CC(N)=O)NC(=O)[C@H](Cc4ccc(O)cc4)NC(=O)[C@H]([C@@H](C)O)NC1=O)C(=O)N[C@@H](CCCNC(=N)N)C(=O)NCC(=O)N[C@@H](CSSC[C@@H](C(=O)N[C@@H](Cc1c[nH]cn1)C(=O)N[C@@H](CCCNC(=N)N)C(=O)O)NC(=O)[C@H](C(C)C)NC2=O)C(=O)N[C@@H](CCCNC(=N)N)C(=O)N[C@@H](Cc1ccc(O)cc1)C(=O)N[C@@H](CCCCN)C(=O)N3)[C@@H](C)O)[C@@H](C)O | LRR receptor-like serine/threonine-protein kinase ERECTA, ectodomain (ERECTA, Arabidopsis thaliana, UniProt Q42371) | binding, QCM | – | 4 °C | Kd | 0.044 ± 0.021 µM |
| C[C@@H](O)[C@H](NC(=O)[C@@H]1CCCN1C(=O)[C@H](CO)NC(=O)[C@H](Cc1ccc(O)cc1)NC(=O)[C@H](CO)NC(=O)[C@@H]1CCCN1C(=O)[C@H](COP(=O)(O)O)NC(=O)[C@@H](NC(=O)[C@@H]1CCCN1C(=O)[C@H](CO)NC(=O)[C@H](Cc1ccc(O)cc1)NC(=O)[C@H](CO)NC(=O)[C@@H]1CCCN1C(=O)[C@@H](N)CO)[C@@H](C)O)C(=O)N[C@@H](COP(=O)(O)O)C(=O)N1CCC[C@H]1C(=O)N[C@@H](CO)C(=O)N[C@@H](Cc1ccc(O)cc1)C(=O)N[C@@H](CO)C(=O)O | Regulation of nuclear pre-mRNA domain-containing protein 1A, CID domain (RPRD1A, Homo sapiens, UniProt Q96P16) | isothermal titration calorimetry | – | pH 7.5, 25 °C | Kd | > 1000 µM |
| CC(C)C[C@H](NC(=O)[C@H](CCCNC(=N)N)NC(=O)CNC(=O)[C@H](CCCNC(=N)N)NC(=O)[C@H](Cc1ccc(O)cc1)NC(=O)[C@H](Cc1c[nH]c2ccccc12)NC(=O)CNC(=O)[C@H](Cc1c[nH]cn1)NC(=O)[C@H](Cc1c[nH]cn1)NC(=O)[C@H](Cc1c[nH]cn1)NC(=O)[C@H](Cc1c[nH]cn1)NC(=O)[C@H](CCCNC(=N)N)NC(=O)[C@H](CCCNC(=N)N)NC(=O)[C@H](CCCNC(=N)N)NC(=O)[C@H](CCCNC(=N)N)NC(=O)[C@H](CCCNC(=N)N)NC(=O)[C@H](Cc1c[nH]cn1)NC(=O)[C@H](Cc1c[nH]cn1)NC(=O)[C@H](Cc1c[nH]cn1)NC(=O)[C@H](Cc1c[nH]cn1)NC(=O)[C@H](CCCNC(=N)N)NC(=O)[C@H](CCCNC(=N)N)NC(=O)[C@H](CCCNC(=N)N)NC(=O)[C@H](CCCNC(=N)N)NC(=O)[C@H](CCCNC(=N)N)NC(=O)CNC(=O)[C@@H](N)CCCCN)C(=O)O | Collagen alpha-1(II) chain (COL2A1, Homo sapiens, UniProt P02458) | binding, SPR | – | – | Kd | 0.0205 µM |
| COC(=O)[C@H](Cc1ccccc1)NC(=O)[C@@H]1CCCN1C(=O)[C@H](Cc1c[nH]cn1)NC(=O)[C@H](C)NC(C)=O | Peptidyl-prolyl cis-trans isomerase NIMA-interacting 1 (PIN1, Homo sapiens, UniProt Q13526) | binding | – | pH 7.4 | Kd | 0.45 µM |
| COc1cc(C=O)ccc1OCc1cccc(CO)n1 | Hemoglobin subunit alpha, with beta chain (HBA1, Homo sapiens, UniProt P69905) | binding, cation-exchange HPLC-UV/Vis | – | kinetic Kd from koff/kon | Kd | 550 µM |
| CC[C@H](C)[C@@H]1NC(=O)[C@@H](NC(=O)[C@H](C)N)CSCCC(=O)N2CN3CN(C2)C(=O)CCSC[C@H](NC(=O)[C@H](Cc2ccc(O)cc2)NC(=O)[C@H](CCC(N)=O)NC(=O)CNC(=O)[C@H](CCC(=O)O)NC(=O)[C@H](CCC(=O)O)NC1=O)C(=O)N[C@@H](Cc1ccc(O)cc1)C(=O)N[C@@H](CCCNC(=N)N)C(=O)N[C@@H](CC(=O)O)C(=O)N[C@@H](CCSC)C(=O)N[C@@H](Cc1ccc(O)cc1)C(=O)N[C@@H](CCSC)C(=O)N[C@H](C(=O)N[C@@H](C)C(N)=O)CSCCC3=O | Tumor necrosis factor receptor superfamily member 9 (Homo sapiens, UniProt Q07011) | binding, SPR | – | – | Kd | 0.795 µM |
| CC[C@H](C)[C@H](NC(=O)CNC(C)=O)C(=O)N[C@@H](CCCNC(=N)N)C(=O)N[C@@H](CCC(=O)O)C(=O)N[C@@H](C)C(=O)N[C@H](C(=O)N[C@@H](CC(C)C)C(=O)N[C@@H](CCCNC(=N)N)C(=O)N[C@@H](C)C(=O)N[C@@H](Cc1c[nH]c2ccccc12)C(=O)N[C@@H](CCC(=O)O)C(=O)N[C@@H](CCCNC(=N)N)C(=O)N[C@@H](CCCNC(=N)N)C(=O)N[C@@H](Cc1ccc(O)cc1)C(=O)NCC(=O)N[C@@H](Cc1ccccc1)C(=O)N1CCC[C@H]1C(=O)N[C@@H](CCCNC(=N)N)C(=O)N1CCC[C@H]1C(=O)N[C@@H](CC(C)C)C(=O)N[C@@H](CCCNC(=N)N)C(=O)N[C@@H](CO)C(=O)N[C@@H](CCC(=O)O)C(N)=O)[C@@H](C)O | Antirepressor protein CarS (carS, Myxococcus xanthus, UniProt Q06911) | ITC | – | pH 7.5, 25 °C | Kd | 0.15 ± 0.04 µM |
| Cc1cc(-c2ccc3c(c2)CCC3O)cc(C)c1O (centres unmarked) | Estrogen receptor beta (ESR2, Homo sapiens, UniProt Q92731) | binding, competitive radioligand binding | – | – | Kd | 25 µM |
| N=C(N)NCCC[C@H](NC(=O)[C@H](Cc1ccccc1)NC(=O)[C@@H]1CCCN1C(=O)[C@H](CO)NC(=O)[C@H](Cc1ccccc1)NC(=O)CNC(=O)[C@@H]1CCCN1C(=O)[C@@H]1CCCN1C(=O)[C@@H](N)CCCNC(=N)N)C(=O)N[C@@H](CCCCNS(=O)(=O)c1ccc(C2=c3cc4c5c(c3Oc3c2cc2c6c3CCCN6CCC2)CCC[N+]=5CCC4)c(S(=O)(=O)[O-])c1)C(=O)O | Oligopeptide-binding protein OppA (oppA, Lactococcus lactis subsp. lactis, UniProt Q07741) | binding of labelled peptide, fluorescence anisotropy | Lactococcus lactis | pH 8, 37 °C | Kd | 15.9 ± 0.5 µM |

Repeated from above:
| Structure (SMILES) | target or system | assay | system | setting | quantity | result |
| --- | --- | --- | --- | --- | --- | --- |
| N=C(N)NCCC[C@H](NC(=O)[C@H](Cc1ccccc1)NC(=O)[C@@H]1CCCN1C(=O)[C@H](CO)NC(=O)[C@H](Cc1ccccc1)NC(=O)CNC(=O)[C@@H]1CCCN1C(=O)[C@@H]1CCCN1C(=O)[C@@H](N)CCCNC(=N)N)C(=O)N[C@@H](CCCCNS(=O)(=O)c1ccc(C2=c3cc4c5c(c3Oc3c2cc2c6c3CCCN6CCC2)CCC[N+]=5CCC4)c(S(=O)(=O)[O-])c1)C(=O)O | Oligopeptide-binding protein OppA (oppA, Lactococcus lactis subsp. lactis, UniProt Q07741) | binding of labelled peptide, fluorescence anisotropy | Lactococcus lactis | pH 8, 37 °C | Kd | 15.9 ± 0.5 µM |
| O=C(Nc1cccc(-c2nn[nH]n2)c1)c1cc(-c2ccncn2)cc(C(F)(F)F)c1 | Beta-lactamase CTX-M-27 | surface plasmon resonance | – | 25 °C | Kd | 2.91 ± 0.05 µM |
